Assay results pooled from the literature.
Numbered parts are unrelated; each lists some results of a single study. Substitutions count along the parent as printed.

Study 1
Target: RNA binding protein fox-1 homolog 2, RRM domain, GST-SBP tag (RBFOX2, Homo sapiens, UniProt O43251-10, residues 100-194)
Technique: RNA Bind-n-Seq
Form: RNA
Matrix: in vitro
Tested at: 365 nM
Setting: natural RNA segment, single round, ends assumed
Reference: no-protein control
Reading: higher = stronger binding
Construct (chain): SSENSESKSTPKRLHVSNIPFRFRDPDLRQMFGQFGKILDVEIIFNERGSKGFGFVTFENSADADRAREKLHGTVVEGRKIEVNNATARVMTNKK
Sequence | RBNS enrichment (R)
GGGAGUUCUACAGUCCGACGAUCUGUACAGUUGUCGAAGUGGAGAAAAUGAGGAUAUAUUCUUGCAGACGAGCUAUAGGUCAUACAUGAAUGUCUAGUGAGACAUUCAAAAUUCGUAUAGGGUGCAGAGUAAUUGGAAUUCUCGGGUGCCAA | 0.393
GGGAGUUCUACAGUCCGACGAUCCCCUACAAUAAGAUUGUUUUAUCUGUACAUUUUUUCAGAUAUUUAACUGUAUAAAAUGUUCAUUUUACACAAUAUUUAAUUAAAGUAUUUCUUGUCUGUGAAUUUCACUUUGGAAUUCUCGGGUGCCAA | 0.472
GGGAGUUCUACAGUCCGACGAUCAAUUUGAUAGUUCUUGUCAAAUGAGAAAAUUUAAAGGUAAGAGUUAUGGUUUGUCUUAUGCUGCAUAGACUAUUCACCUCCUAACUUGAAGGUCUAAUCAUAAGACAAUUUGGAAUUCUCGGGUGCCAA | 0.437
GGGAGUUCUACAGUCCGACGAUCAUAUAUUUUUUAAAAAUAGGUUCAUUGAACAUAAAUCAGAUUGUUUGAGGUCAUUUUUCAGCAACAUUGGAUUCCUUUCUCCUCGGUGUGCUCAGCCUUCUCUGCAGCCUUGGAAUUCUCGGGUGCCAA | 0.277
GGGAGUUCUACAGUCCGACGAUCUGACAUGUUCACCCAUCUUCUCUGCUUCCCGCCACCAUCCAGAUCCUCAGCGGCCGCCCCGGCUGUGCCCUUCCCUGCUCUCCCGCUCUCUCAGGCCUCGGAAGGAAGAUUGGAAUUCUCGGGUGCCAA | 0.644
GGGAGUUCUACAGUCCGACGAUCGGCCCCACGCACCCCAGAACACACAGACCCACCUUUCUGGCGUUCUUUCUACCUCCCUUUUCGUUGCCUGAGGAGCUGGUGGUUUCAUGAGUUAAUGAUACAUCUUGCAAUGGAAUUCUCGGGUGCCAA | 0.679
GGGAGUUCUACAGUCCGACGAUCCACAAAAUUUAUGUACAGUGCAUAUUAUUGAUCAAUAAACUAAACUUGUUUUCCAAUAAAUUGUUAAAGCCUCUUUUGAGUAUCGCUGAAAGUUGGUUGCUCUGUCCUUUUGGAAUUCUCGGGUGCCAA | 0.293
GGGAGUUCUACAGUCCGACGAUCCUCUACAAAGCACAACGAAAAACAACAAAUGGAGUUGUGCUAUGUUGUAUUGCUUUGCACAAAAUUAGGAACAGGUGUUUGACAAUUGAAUUUGUUUUCUGUGAAUUCUAUGGAAUUCUCGGGUGCCAA | 0.409

Study 2
Target: DDIT3, bZIP domain (human)
Technique: DHFR protein complementation
Matrix: yeast
Setting: single substitutions, most at no-binding floor
Reference: wild-type JUN-FOS pair
Reading: higher = stronger binding
Starting sequence: JUN, bZIP domain (human); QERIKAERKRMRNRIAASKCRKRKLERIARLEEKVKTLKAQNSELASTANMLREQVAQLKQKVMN; partner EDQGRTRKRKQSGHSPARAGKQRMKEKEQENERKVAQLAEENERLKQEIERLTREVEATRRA
Change | binding fitness [natural log]
L59H | -0.277
R30Q | 0.13
R53T | -0.509
L45M | -0.28
Q41M | -0.0261
R30F | 0.0906
K36H | -0.0453
K36Q | 0.0184
R53A | -0.111
A29R | -0.000803
E44F | -0.123
E32S | -0.237
E44R | -0.0342
Q55K | 0.0654
A46V | 0.0496
V35P | -1.24
E32G | -0.401
I28S | -0.0995
M51T | 0.0686
L38V | -1.16
L38Y | -0.676
L59V | -0.25
K36D | -0.003
E33D | -0.035
L31A | -0.5

Study 3
Target: Histone acetyltransferase KAT6A, both winged helices, GST fusion (KAT6A, Homo sapiens, UniProt Q92794, residues 1-181)
Technique: protein binding microarray
Form: double-stranded DNA, one strand shown
Matrix: in vitro
Tested at: not given
Setting: 8-mer, flanks averaged, mean of 2 arrays, mostly near background
Reference: not given
Reading: higher = stronger binding
Residues (chain): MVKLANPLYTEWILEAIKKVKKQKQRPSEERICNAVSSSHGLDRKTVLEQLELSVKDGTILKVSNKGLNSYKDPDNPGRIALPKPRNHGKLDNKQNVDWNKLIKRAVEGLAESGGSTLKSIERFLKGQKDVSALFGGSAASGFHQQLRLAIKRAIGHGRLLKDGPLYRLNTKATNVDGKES
Sequence | E-score
ACTGCACA | -0.192
CACGCCTA | 0.00666
GATCCTCC | -0.0462
GGTGGGTA | -0.0734
ACCACGGC | 0.176
ACATAAAG | -0.202
AAGTCTCG | -0.0101
CAGTACAA | -0.13
AGATTGTG | -0.0897
ACAGCTGG | -0.132
AGATAGCG | 0.0554
AGAGCGGA | 0.13
CACAATGG | -0.152
CGGGGTTC | 0.218
ACGACAGC | -0.00179
AATGGAAA | -0.0574
CCGCCAGG | 0.133

Study 4
Target: Interferon regulatory factor 7, full length, phosphomimetic (IRF7, Homo sapiens, UniProt Q92985, residues 1-503, S101K/S471D/S472D/S475D/S476D/S477D/S483D/S484D/S487D)
Sequence of UniProt Q92985 (whole entry, unmodified, looked up): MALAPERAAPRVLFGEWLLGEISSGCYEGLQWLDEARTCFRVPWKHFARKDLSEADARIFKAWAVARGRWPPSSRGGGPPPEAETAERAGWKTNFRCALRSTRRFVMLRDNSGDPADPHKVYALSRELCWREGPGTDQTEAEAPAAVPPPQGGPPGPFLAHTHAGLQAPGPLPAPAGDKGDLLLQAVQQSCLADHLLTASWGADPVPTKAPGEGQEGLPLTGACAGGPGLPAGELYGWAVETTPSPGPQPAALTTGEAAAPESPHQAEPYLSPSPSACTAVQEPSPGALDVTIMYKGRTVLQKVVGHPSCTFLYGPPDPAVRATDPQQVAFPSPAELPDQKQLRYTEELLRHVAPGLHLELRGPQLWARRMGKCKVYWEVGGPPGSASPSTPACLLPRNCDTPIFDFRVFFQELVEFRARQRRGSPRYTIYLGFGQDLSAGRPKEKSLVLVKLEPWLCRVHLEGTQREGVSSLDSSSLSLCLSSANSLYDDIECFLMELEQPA
Technique: protein-binding microarray
Form: double-stranded DNA, one strand shown
Matrix: in vitro
Tested at: 250 nM
Setting: 60-bp whole probe
Added: salmon DNA 0.4 mg/ml
Reference: random background probes
Reading: higher = stronger binding
Constant ends, left off below: GCCTAGCAC … GTCTTGATTCGCTTGACGCTGCTG
Sequence | log fluorescence [z-score]
GACGGTCTCCTTTTCGTGACGTGCTAG | 1.11
GACGGTATCGGTTTCGGGAGGTGCTAG | 6.07
TTACATTTCAGACTGGATTAGTGCTAG | 0.611
GGCGGTTTCCTTCTCCTGACGTGCTAG | 2.04
GACGGTGTCGACTTTCGGGACGTGCTA | -0.336
TTAGGTATCGGGTATCGCTTAGTGCTA | 1.29
TTATATTTCAGTTTCGATTAGTGCTAG | 9.76
TTAGGTACCGGACTGGGTTAGTGCTAG | 0.124
GACGATTTCAGTTTCCAGACGTGCTAG | 1.65
TCACGTCTGAGCTCCGTACTGTGCTAG | -0.142
TCAAGTTTCTCCTTTGTACTGTGCTAG | 2.02
TTAGATATCAGTATCGATCAGTGCTAG | 0.15
GACGATAGCGGGACTGGAGACGTGCTA | -0.929
TCAATCATCCGTTTCTTACTGTGCTAG | 0.532
CTCTGCTTGGGTCTGGGTATGTGCTAG | -0.452
TTAGGAATGGGGTTTCGGTTAGTGCTA | 5.9
GATGGACTGGACTATCGGGACGTGCTA | -0.749
GCCATTGTGGATCTTGCAGAGTGCTAG | -0.555
CTCTAACTCAAGATTCCTCTCGTGCTA | 0.273

Some of these lines once more (study 2):
Change | binding fitness [natural log]
M51T | 0.0686
L38V | -1.16
L38Y | -0.676
L59V | -0.25
